Assay results of several laboratories.
Compare with care: the assays were run in different laboratories. Values joined by “and” are separate records of one study, mostly repeats; a detail may differ. ± gives the spread as reported.
Target: Broad substrate specificity ATP-binding cassette transporter ABCG2 (ABCG2, Homo sapiens, UniProt Q9UNQ0)
Sequence (Q9UNQ0 1-655, as in one of the studies): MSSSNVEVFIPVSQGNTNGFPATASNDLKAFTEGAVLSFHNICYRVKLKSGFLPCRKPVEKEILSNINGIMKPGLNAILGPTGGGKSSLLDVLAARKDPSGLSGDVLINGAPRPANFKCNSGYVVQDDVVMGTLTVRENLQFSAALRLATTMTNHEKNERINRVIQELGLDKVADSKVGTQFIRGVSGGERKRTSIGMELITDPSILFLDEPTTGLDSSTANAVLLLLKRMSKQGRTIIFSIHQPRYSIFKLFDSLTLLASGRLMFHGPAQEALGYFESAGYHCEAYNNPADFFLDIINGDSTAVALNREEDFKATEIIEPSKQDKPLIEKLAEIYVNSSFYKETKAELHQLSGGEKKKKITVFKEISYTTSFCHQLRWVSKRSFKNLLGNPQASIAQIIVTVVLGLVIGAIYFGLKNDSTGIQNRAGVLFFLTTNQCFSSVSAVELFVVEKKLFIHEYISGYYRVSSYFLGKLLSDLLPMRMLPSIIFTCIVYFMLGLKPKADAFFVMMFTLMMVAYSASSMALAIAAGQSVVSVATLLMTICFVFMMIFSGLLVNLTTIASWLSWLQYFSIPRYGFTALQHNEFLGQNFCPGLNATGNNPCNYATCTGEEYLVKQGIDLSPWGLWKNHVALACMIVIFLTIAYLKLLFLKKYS

assay | system | conditions | scale | quantity | result | SMILES
bidirectional transwell permeability | MDCKII cells transfected with ABCG2 | 1 µM, 1 h, pH 7.4 |  | efflux ratio | 3 ± 2.53 | CCOc1cc2ncc(C#N)c(Nc3ccc(OCc4ccccn4)c(Cl)c3)c2cc1NC(=O)/C=C/CN(C)C
protoporphyrin IX accumulation | A549 | 1 µM, 2 h, together with: ALA 1 mM |  | inhibition | 10.1% and 16.9% | COc1ccc2c3c([nH]c2c1)[C@H](CC(C)C)N1C(=O)[C@H](CC(=O)O)NC(=O)[C@@H]1C3
substrate | MDCK-II transduced with human ABCG2 | 10 µM, 4 h, basolateral to apical |  | transport | 41.5 ± 11.6% | CN1C[C@@H]2C[C@H]1CN2c1cc2c(cc1F)c(=O)c(C(=O)O)cn2C1CC1
bidirectional transwell permeability | MDCKII cells transfected with ABCG2 | 1 µM, 1 h, pH 7.4, together with: Ko143 1 µM |  | efflux ratio | 1.01 ± 0.16 | Cc1cc(Nc2ncnc3ccc(NC4=NC(C)(C)CO4)cc23)ccc1Oc1ccn2ncnc2c1
 | Caco-2 | 1 µM, 2 h, pH 7.4, together with: 2 µM Ko143 |  | Papp B to A | 12.8 ×10⁻⁶ cm/s | C/C(O)=C(\C#N)C(=O)Nc1ccc(C(F)(F)F)cc1
substrate | membrane vesicles | 5 µM | baseline: ATP over AMP | uptake ratio | 2.08 | C[C@]12CCCN1CC1=NNC(=O)c3cc(F)cc4[nH]c2c1c34
substrate | MDCK-II cells expressing ABCG2 | 5 µM, together with: Ko143 1 M |  | efflux ratio decrease | 96.5% | C/C(O)=C(\C#N)C(=O)Nc1ccc(C(F)(F)F)cc1
bidirectional transwell permeability | MDCKII cells transfected with ABCG2 | 1 µM, 1 h, pH 7.4, together with: Ko143 1 µM |  | Papp A-B | 1.64 ± 0.4 ×10⁻⁶ cm/s | CS(=O)(=O)CCNCc1ccc(-c2ccc3ncnc(Nc4ccc(OCc5cccc(F)c5)c(Cl)c4)c3c2)o1
 | human | 20 mg/kg, compound alone |  | Tmax | 4 h | C[C@H](O)C(=O)C1=Nc2c(nc(N)[nH]c2=O)NC1
transport | membrane vesicles |  |  | Km | 23 µM | O=C(O)[C@H]1O[C@@H](Oc2ccc3oc(-c4ccccc4)cc(=O)c3c2)[C@H](O)[C@@H](O)[C@@H]1O
substrate | human EpiIntestinal microtissues | 5 µM, 2 h, together with: Ko143 5 µM | baseline: B to A over A to B | efflux ratio | 2.3 | CC(C)c1nc(N(C)S(C)(=O)=O)nc(-c2ccc(F)cc2)c1/C=C/[C@@H](O)C[C@@H](O)CC(=O)O
inhibitor, refers to: protoporphyrin IX | A549 | 1 µM, 2 h, together with: 1 mM ALA |  | inhibition | 68% and 93.2% and 72.5% and 82.9% | COc1ccc2c3c([nH]c2c1)[C@H](CC(C)C)N1C(=O)[C@H](CC(=O)NC(C)C)NC(=O)[C@@H]1C3

Repeated from above:
assay | system | conditions | scale | quantity | result | SMILES
bidirectional transwell permeability | MDCKII cells transfected with ABCG2 | 1 µM, 1 h, pH 7.4, together with: Ko143 1 µM |  | Papp A-B | 1.64 ± 0.4 ×10⁻⁶ cm/s | CS(=O)(=O)CCNCc1ccc(-c2ccc3ncnc(Nc4ccc(OCc5cccc(F)c5)c(Cl)c4)c3c2)o1
